Results collected from several papers.
Protocols differ between the studies behind these lines. ± gives the spread as reported.
Organism: Plasmodium falciparum

SMILES | observed | technique | strain | time | setting | IC50
[N-]=[N+]=NCCc1cc(CN(Cc2ccccn2)Cc2ccccn2)c(O)c(CN(Cc2ccccn2)Cc2ccccn2)c1 | growth | [3H]hypoxanthine incorporation | HB3 chloroquine-sensitive | 48 h | – | 540 ± 91 nM
CC[C@H](C)[C@@H]1NC(=O)[C@H](CCCCN)NC(=O)[C@H](CCCCN)NC(=O)[C@H](Cc2ccc(O)cc2)NC(=O)[C@H](CC(C)C)NC(=O)[C@@H]2CCCN2C(=O)CNC(=O)CNC(=O)[C@@H](NC(=O)CN)CSSC[C@@H](C(=O)N[C@@H](CCCCN)C(=O)N[C@@H](CO)C(N)=O)NC(=O)[C@H](CC(C)C)NC(=O)[C@H](CCCCN)NC(=O)[C@H](CCCCN)NC(=O)[C@H]([C@@H](C)CC)NC(=O)[C@H]([C@@H](C)CC)NC(=O)[C@H](CCCCN)NC(=O)[C@H](CCCCN)NC(=O)[C@H](Cc2ccc(O)cc2)NC(=O)[C@H](CC(C)C)NC(=O)[C@@H]2CCCN2C(=O)[C@H](C)NC(=O)CNC(=O)CNC(=O)[C@H](CO)NC(=O)CNC(=O)CNC(=O)[C@H](CO)NC(=O)[C@H](CCCCN)NC(=O)[C@H](CC(C)C)NC(=O)[C@H](CC(C)C)NC(=O)[C@H](CCCCN)NC(=O)[C@H](CCCCN)NC(=O)[C@H]([C@@H](C)CC)NC1=O | parasite growth | – | 3D7 | 72 h | Albumax II medium, no serum | 3700 ± 200 nM
c1cncc(CCCOCCCCCCCCOC2CCCCO2)c1 (stereo not shown) | – | anti-HRPII ELISA | W2 chloroquine-resistant | 72 h | – | 37700 ± 200 nM
C#CCOc1ccc(C=NNC(=N)NN=Cc2ccc(OCC#C)cc2)cc1 | parasite growth | SYBR Green | DD2 | 72 h | drug-resistant strain, blood stage | 199 nM
O=C1C(O)=C(CN2CCNCC2)C(=O)c2ccccc21 | parasite growth | – | W2 | – | drug-resistant strain, blood stage | 110000 nM
CCCCN=Cc1[nH]c(-c2ccc[nH]2)cc1OC | parasite growth | – | 7G8, chloroquine-resistant | – | – | 74.6 nM
COC(=O)[C@@H]1Cc2c([nH]c3ccccc23)[C@H](c2cccs2)N1 | parasite growth | – | – | 48 h | drug-resistant strain, blood stage | 8.66 µg/mL
CC[C@H](C)[C@@H]1NC(=O)[C@H](CCCNC(=N)N)NC(=O)[C@H](CCCNC(=N)N)NC(=O)[C@H](Cc2ccc(O)cc2)NC(=O)[C@H](CC(C)C)NC(=O)[C@@H]2CCCN2C(=O)[C@H](C)NC(=O)CNC(=O)CNC(=O)[C@H](CO)NC(=O)CNC(=O)CNC(=O)[C@H](CO)NC(=O)[C@H](CCC(=O)O)NC(=O)[C@H](CC(C)C)NC(=O)[C@H](CC(C)C)NC(=O)[C@H](CCCNC(=N)N)NC(=O)[C@H](CCCNC(=N)N)NC(=O)[C@H]([C@@H](C)CC)NC(=O)[C@H]([C@@H](C)CC)NC(=O)[C@H](CCCNC(=N)N)NC(=O)[C@H](CCCNC(=N)N)NC(=O)[C@H](Cc2ccc(O)cc2)NC(=O)[C@H](CC(C)C)NC(=O)[C@@H]2CCCN2C(=O)CNC(=O)CNC(=O)[C@@H](NC(=O)CN)CSSC[C@@H](C(N)=O)NC(=O)[C@H](CC(C)C)NC(=O)[C@H](CCCNC(=N)N)NC(=O)[C@H](CCCNC(=N)N)NC(=O)[C@H]([C@@H](C)CC)NC1=O | parasite growth | – | 3D7 | 72 h | 5% serum plus Albumax II | 12500 ± 1200 nM
Cc1ccc(C(C)C)cc1.[Cl][Ru+].[O-]c1ccccc1C=NCCNc1ccnc2cc(Cl)ccc12 | parasite growth | parasite lactate dehydrogenase | Dd2 chloroquine-resistant | – | – | 1300 ± 100 nM
CCCCCCN=Cc1[nH]c(-c2ccc[nH]2)cc1OC | parasite growth | – | 7G8, chloroquine-resistant | – | – | 25 nM
COc1cc2c3cc1Oc1cc(ccc1O)CC1c4c(cc(OC)c(O)c4Oc4ccc(cc4)CC3N(C)CC2)CCN1C (stereo not shown) | parasite growth | SYBR Green I | Cam3.1 R539T (MRA-1240) | – | – | > 1000 nM
CC1=CC(=CNC2CCCCCC2)N=C1c1ccc[nH]1 | parasite growth | – | Dd2, chloroquine-resistant | – | – | > 2500 nM
COc1ccc2nc3cc(Cl)ccc3c(NCCN3C(=O)c4ccc5c6c(ccc(c46)C3=O)C(=O)N(CCN(C)C)C5=O)c2c1 | parasite growth | SYBR Green | W2 | 72 h | drug-resistant strain, blood stage | 28.5 nM
O=C(CCc1ccc[nH]1)NCC(=O)NC12CC3CC(CC(C3)C1)C2 | parasite growth | – | 7G8, chloroquine-resistant | – | – | > 2500 nM
CC[C@H](C)[C@@H]1NC(=O)[C@H](CCCCN)NC(=O)[C@H](CCCCN)NC(=O)[C@H](Cc2ccc(O)cc2)NC(=O)[C@H](CC(C)C)NC(=O)[C@@H]2CCCN2C(=O)[C@H](C)NC(=O)CNC(=O)CNC(=O)[C@H](CO)NC(=O)CNC(=O)CNC(=O)[C@H](CO)NC(=O)[C@H](CCC(=O)O)NC(=O)[C@H](CC(C)C)NC(=O)[C@H](CC(C)C)NC(=O)[C@H](CCCCN)NC(=O)[C@H](CCCCN)NC(=O)[C@H]([C@@H](C)CC)NC(=O)[C@H]([C@@H](C)CC)NC(=O)[C@H](CCCCN)NC(=O)[C@H](CCCCN)NC(=O)[C@H](Cc2ccc(O)cc2)NC(=O)[C@H](CC(C)C)NC(=O)[C@@H]2CCCN2C(=O)[C@H](C)NC(=O)CNC(=O)[C@@H]2CSSC[C@H](NC(=O)[C@H](CC(C)C)NC(=O)[C@H](CCCCN)NC(=O)[C@H](CCCCN)NC(=O)[C@H]([C@@H](C)CC)NC1=O)C(=O)N[C@@H](CCC(=O)O)C(=O)N[C@@H](CO)C(=O)NCC(=O)N2 | parasite growth | – | 3D7 | 72 h | Albumax II medium, no serum | 26300 ± 1900 nM
CCC1=C(C)C(=CNC23CC4CC(CC(C4)C2)C3)N=C1c1ccc[nH]1 | parasite growth | – | Dd2, chloroquine-resistant | – | – | 4.3 nM
N#Cc1c(-c2ccco2)[n+]([O-])c2ccc(Cl)cc2[n+]1[O-] | parasite growth | [3H]hypoxanthine incorporation | K1 chloroquine-resistant | – | – | 340 ± 40 nM
O=C(c1ccccc1)N1CCC2(CC1)OOC1(CCCC1)OO2 | parasite growth | imaging | 3D7 | 48 h | blood stage | 19.4 nM
CC[C@H](C)[C@@H]1NC(=O)[C@H](CCCCN)NC(=O)[C@H](CCCCN)NC(=O)[C@H](Cc2c[nH]c3ccccc23)NC(=O)[C@H](CC(C)C)NC(=O)[C@@H]2CCCN2C(=O)[C@H](C)NC(=O)CNC(=O)CNC(=O)[C@H](CO)NC(=O)CNC(=O)CNC(=O)[C@H](CO)NC(=O)[C@H](CCC(=O)O)NC(=O)[C@H](CC(C)C)NC(=O)[C@H](CC(C)C)NC(=O)[C@H](CCCCN)NC(=O)[C@H](CCCCN)NC(=O)[C@H]([C@@H](C)CC)NC(=O)[C@H]([C@@H](C)CC)NC(=O)[C@H](CCCCN)NC(=O)[C@H](CCCCN)NC(=O)[C@H](Cc2c[nH]c3ccccc23)NC(=O)[C@H](CC(C)C)NC(=O)[C@@H]2CCCN2C(=O)CNC(=O)CNC(=O)[C@@H](NC(=O)CN)CSSC[C@@H](C(N)=O)NC(=O)[C@H](CC(C)C)NC(=O)[C@H](CCCCN)NC(=O)[C@H](CCCCN)NC(=O)[C@H]([C@@H](C)CC)NC1=O | parasite growth | – | 3D7 | 72 h | 5% serum plus Albumax II | 3000 ± 200 nM
CC(C)C(C(=O)N[C@@H](Cc1ccccc1)[C@H](O)CN1CCN(Cc2ccc(Br)cc2)CC1)N1C(=O)c2ccccc2C1=O (stereo partly shown) | blood-stage growth | SYBR Green I fluorescence | IPC4912 (MRA-1241) artemisinin-resistant | 72 h | – | 1100 ± 17.6 nM
CCC1=CC(c2ccc[nH]2)=NC1=CNC1CCCCCCC1 | parasite growth | – | Dd2, chloroquine-resistant | – | – | > 250 nM
COc1cc(O)c(-c2cc(-c3cc(-c4c(O)cc5c(c4OC)[C@H](C)N[C@H](C)C5)c4cc(C)cc(OC)c4c3O)c(O)c3c(OC)cc(C)cc23)c2c1[C@H](C)N[C@H](C)C2 | parasite growth | SYBR Green | W2 | 96 h | drug-resistant strain, blood stage | 134 nM

Excerpt of the above:
SMILES | observed | technique | strain | time | setting | IC50
CC[C@H](C)[C@@H]1NC(=O)[C@H](CCCCN)NC(=O)[C@H](CCCCN)NC(=O)[C@H](Cc2ccc(O)cc2)NC(=O)[C@H](CC(C)C)NC(=O)[C@@H]2CCCN2C(=O)CNC(=O)CNC(=O)[C@@H](NC(=O)CN)CSSC[C@@H](C(=O)N[C@@H](CCCCN)C(=O)N[C@@H](CO)C(N)=O)NC(=O)[C@H](CC(C)C)NC(=O)[C@H](CCCCN)NC(=O)[C@H](CCCCN)NC(=O)[C@H]([C@@H](C)CC)NC(=O)[C@H]([C@@H](C)CC)NC(=O)[C@H](CCCCN)NC(=O)[C@H](CCCCN)NC(=O)[C@H](Cc2ccc(O)cc2)NC(=O)[C@H](CC(C)C)NC(=O)[C@@H]2CCCN2C(=O)[C@H](C)NC(=O)CNC(=O)CNC(=O)[C@H](CO)NC(=O)CNC(=O)CNC(=O)[C@H](CO)NC(=O)[C@H](CCCCN)NC(=O)[C@H](CC(C)C)NC(=O)[C@H](CC(C)C)NC(=O)[C@H](CCCCN)NC(=O)[C@H](CCCCN)NC(=O)[C@H]([C@@H](C)CC)NC1=O | parasite growth | – | 3D7 | 72 h | Albumax II medium, no serum | 3700 ± 200 nM
c1cncc(CCCOCCCCCCCCOC2CCCCO2)c1 (stereo not shown) | – | anti-HRPII ELISA | W2 chloroquine-resistant | 72 h | – | 37700 ± 200 nM
C#CCOc1ccc(C=NNC(=N)NN=Cc2ccc(OCC#C)cc2)cc1 | parasite growth | SYBR Green | DD2 | 72 h | drug-resistant strain, blood stage | 199 nM
O=C1C(O)=C(CN2CCNCC2)C(=O)c2ccccc21 | parasite growth | – | W2 | – | drug-resistant strain, blood stage | 110000 nM
